# Measurements gathered from unrelated publications.
# Parts stem from different laboratories: compare values within a part only.

# Study 1 — method: universal PBM; molecule type: double-stranded DNA, one strand shown; medium: in vitro; concentration: 600 nM; direction: higher = stronger binding
# Target: Sal-like protein 4, full length isoform A (SALL4, Homo sapiens, UniProt Q9UJQ4, residues 1-1053)
# Chain of UniProt Q9UJQ4 (whole entry, looked up): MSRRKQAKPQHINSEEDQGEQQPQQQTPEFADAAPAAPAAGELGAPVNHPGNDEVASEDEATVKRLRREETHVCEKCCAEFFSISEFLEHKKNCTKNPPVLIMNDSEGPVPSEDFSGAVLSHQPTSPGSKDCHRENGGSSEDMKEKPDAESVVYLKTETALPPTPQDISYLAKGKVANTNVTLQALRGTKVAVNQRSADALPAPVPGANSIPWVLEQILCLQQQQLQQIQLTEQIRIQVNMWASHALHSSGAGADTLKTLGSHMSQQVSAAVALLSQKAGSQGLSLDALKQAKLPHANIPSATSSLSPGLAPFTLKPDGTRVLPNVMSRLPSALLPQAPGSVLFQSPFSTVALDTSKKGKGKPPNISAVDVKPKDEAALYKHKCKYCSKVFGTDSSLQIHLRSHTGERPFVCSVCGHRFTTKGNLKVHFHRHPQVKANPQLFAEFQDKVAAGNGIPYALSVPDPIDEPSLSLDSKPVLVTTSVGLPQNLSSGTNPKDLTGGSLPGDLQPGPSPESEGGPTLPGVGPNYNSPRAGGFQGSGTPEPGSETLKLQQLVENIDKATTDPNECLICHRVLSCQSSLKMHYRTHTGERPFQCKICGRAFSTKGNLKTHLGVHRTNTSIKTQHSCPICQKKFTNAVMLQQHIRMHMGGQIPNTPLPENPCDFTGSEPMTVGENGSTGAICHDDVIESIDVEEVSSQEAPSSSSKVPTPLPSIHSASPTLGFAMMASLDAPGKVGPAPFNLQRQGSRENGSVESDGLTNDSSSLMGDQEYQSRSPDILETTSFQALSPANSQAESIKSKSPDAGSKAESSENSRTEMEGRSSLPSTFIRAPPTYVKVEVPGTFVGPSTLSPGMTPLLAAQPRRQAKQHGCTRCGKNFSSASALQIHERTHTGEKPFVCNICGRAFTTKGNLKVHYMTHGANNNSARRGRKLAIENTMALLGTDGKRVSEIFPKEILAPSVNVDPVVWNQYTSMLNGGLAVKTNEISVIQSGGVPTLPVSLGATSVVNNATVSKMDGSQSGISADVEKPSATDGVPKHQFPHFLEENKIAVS
# Notes: 8-mer, flanks averaged, mean of replicates
Strand,E-score
TATGGCGA,-0.043
CGAGTTAG,-0.0233
AGAACTAT,0.262
CCAGCCAG,-0.343
AGGGTACA,0.0823
CGAGTTCA,-0.136
AAACACAG,0.188
TTCGCGAA,0.142

# Study 2 — effect on: peptide binding; molecule type: peptide; medium: yeast competitive growth; together with: B2-Cln2 chimera; direction: direction not given
Sequence,enrichment score
HRRRLLFACSPPPASQ,-1.67
VKTKKRLNFDDK,-0.795
RRRRLLFWDKETQI,-1.26

# Study 3 — method: protein binding microarray; molecule type: double-stranded DNA, one strand shown; medium: in vitro; concentration: not given; relative to: not given; direction: higher = stronger binding
# Target: Histone acetyltransferase KAT6A, winged helix 2, GST fusion (KAT6A, Homo sapiens, UniProt Q92794, residues 85-181)
# Notes: 8-mer, flanks averaged, mean of 2 arrays, mostly near background
# Construct (chain): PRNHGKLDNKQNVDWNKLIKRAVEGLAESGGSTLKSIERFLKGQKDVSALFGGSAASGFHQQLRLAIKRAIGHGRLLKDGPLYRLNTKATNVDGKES
Strand,E-score
ATTTCGTG,0.147
ATCTAGTC,-0.213
AAGCCCCC,0.00147
TACACCAA,-0.123
TAGCGCCA,0.149
TTAACAAA,0.0487
AGCTTGGA,0.019
CGTAGAAG,-0.0552
TGGCGGAA,-0.00664
CAGGCTGA,0.0253

# Single results of other studies
Molecule,target,test,test system,conditions,scale,quantity,value
"PhoQ, residues 284 288 289 292 302 303 AQGLTV","PhoP, residues 12 14 15 18 19 NHTVL (Escherichia coli, UniProt P23836)","Sort-seq, item: YFP reporter",E. coli,"PhoQ-PhoP variant library, together with: 10 µM Mg2+","relative to: high Mg2+ state, higher = stronger signaling",fold induction,1.24

# Repeated from above (study 3):
Strand,E-score
ATTTCGTG,0.147
ATCTAGTC,-0.213
AAGCCCCC,0.00147
